{"data": "Assay results pooled from the literature", "note": "Compare with care: the assays were run in different laboratories. Several values in a cell are separate wells, animals, samples, runs or records. ± marks the error that the study gave."}
{"Compound": "C#Cc1cccc(Nc2ncnc3cc(OC)c(OCCCCCCC(=O)NO)cc23)c1", "target or system": "HEK293T ATF4-FLuc reporter", "assay": "ATF4 reporter gene, activator, luciferase reporter", "quantity": "EC50", "result": "359 nM"}
{"Compound": "CC(C)C[C@H](NC(=O)C[C@H](O)[C@H](CC(C)C)NC(=O)[C@H](Cc1c[nH]cn1)NC(=O)CNC(=O)[C@@H](NC(=O)[C@H](C)NC(=O)[C@H](Cc1c[nH]c2ccccc12)NC(=O)[C@H](CCC(N)=O)NC(=O)[C@@H](Cc1ccccc1)NC(=O)COCCOCCNC(=O)CCC(C(=O)O)N1CCN(CC(=O)O)CCN(CC(=O)O)CCN(CC(=O)O)CC1)C(C)C)C(N)=O (stereo partly shown) [lutetium-177 labelled]", "test system": "female BALB/c nu/nu mice, brain", "conditions": "intravenous, 100 pmol, 24 h, added: PA 300 µg", "quantity": "tissue uptake", "result": "0.003 ± 0.001 %ID/g"}
{"Compound": "C=C[C@](C)(O)CC[C@@H]1[C@@]2(C)CCCC(C)(C)[C@@H]2CC[C@@]1(C)O", "target or system": "THP-1", "assay": "pyroptotic LDH release", "conditions": "2 µM, 40 min, added: LPS then nigericin", "quantity": "inhibition", "result": "3.38%"}
{"Compound": "Nc1cc2c3ccccc3ccc2c2ccccc12", "target or system": "HEK293T ATF4-FLuc reporter", "assay": "ATF4 reporter gene, activator, luciferase reporter", "quantity": "EC50", "result": "4070 nM"}
{"Compound": "C[C@@H](O)CC(=O)O", "target or system": "THP-1", "assay": "pyroptotic LDH release", "conditions": "2 µM, 40 min, added: LPS then nigericin", "quantity": "inhibition", "result": "-6.74%"}
{"Compound": "O=C(O)CCc1cccc(O)c1", "target or system": "Caco-2/THP-1 co-culture", "conditions": "concentration not given, added: LPS 250 ng/mL", "quantity": "kynurenine level", "result": "171 ± 13.2 % change"}
{"Compound": "CC(C)=CC(=O)O", "target or system": "THP-1", "assay": "pyroptotic LDH release", "conditions": "2 µM, 40 min, added: LPS then nigericin", "quantity": "inhibition", "result": "-20.3%"}
{"Compound": "CCN(CCO)CCCC(C)Nc1ccnc2cc(Cl)ccc12 (stereo not shown)", "target or system": "human PBMC", "assay": "ISG expression, qRT-PCR, item: 5-ISG panel", "conditions": "1000 nM, added: ssRNA", "quantity": "inhibition", "result": "18 ± 4%"}
{"Compound": "O=C(O)c1cc(O)c2c(c1)C(=O)c1cccc(O)c1C2=O", "target or system": "HK-2 co-cultured with HepaRG", "assay": "MTT", "conditions": "133.33 µM, 48 h", "scale": "reference: untreated control", "quantity": "viability", "result": "43 ± 5.03%"}
{"Compound": "O=C(O)c1ccccc1Cl", "target or system": "THP-1", "assay": "pyroptotic LDH release", "conditions": "2 µM, 40 min, added: LPS then nigericin", "quantity": "inhibition", "result": "44.8%"}
{"Compound": "Cn1cc(-c2ccc(-c3cncc(Cl)c3N3CCC4(CCNC4=O)CC3)cc2)cn1", "target or system": "COLO 205", "assay": "gene expression, microarray, item: NLRP1 mRNA", "conditions": "concentration not given, 2 h", "scale": "reference: untreated cells", "quantity": "log2 fold change", "result": 2.72}
{"Compound": "CC(C)n1ncc2c(C(=O)NCC3(C)CNC3)cc(C3CC3)nc21", "target or system": "Enterovirus D68", "assay": "viral replication", "test system": "RD, US/MO/14-18947", "conditions": "0.1 µM", "scale": "reference: untreated", "quantity": "plaque area", "result": "88.8% and 90.6%"}
{"Compound": "CC(C)Oc1ccc(C(=O)N[C@H](CNC(=O)CN(C)C)Cc2ccc(-c3cn4cccc([C@H](C)O)c4n3)cc2)cc1Cl", "target or system": "THP-1", "assay": "pyroptotic LDH release", "conditions": "2 µM, 40 min, added: LPS then nigericin", "quantity": "inhibition", "result": "15.8%"}
{"Compound": "COc1ccc(Oc2cc(NCCC(F)(F)F)c3ncc(-c4ccc(C(=O)NC5CC5)c(C)c4)n3n2)c(F)c1F", "target or system": "HEK293T ATF4-FLuc reporter", "assay": "ATF4 reporter gene, activator, luciferase reporter", "quantity": "EC50", "result": "1710 nM"}
{"Compound": "O=C(/C=C/C=C/C=C/C1CCCCC1)NC1=C[C@@](O)(/C=C/C=C/C=C/C(=O)NC2=C(O)CCC2=O)[C@@H]2O[C@@H]2C1=O", "target or system": "OCUM1", "assay": "cell growth, CellTiter-Glo", "conditions": "78 h", "quantity": "GI50", "result": "> 30000 nM"}
{"Compound": "Cc1cc(O)c2c(c1)C(=O)c1cc(O)cc(O)c1C2=O", "target or system": "HK-2 co-cultured with HepaRG", "assay": "MTT", "conditions": "133.33 µM, 48 h", "scale": "reference: untreated control", "quantity": "viability", "result": "64.7 ± 6.11%"}
{"Compound": "COc1cnc2cccc(N3CCc4c(cc(Cn5ccnc5C)cc4-c4cn(C)nc4C(F)(F)F)C3=O)c2c1", "target or system": "OCI-Ly10", "assay": "cell growth, inhibitor", "conditions": "120 h", "quantity": "EC50", "result": "29.8 nM"}
{"Compound": "Cn1cc(-c2cnc3ccc4ccc(CS(=O)(=O)NCc5ccccn5)cc4c(=O)c3c2)cn1", "target or system": "HEK293T ATF4-FLuc reporter", "assay": "ATF4 reporter gene, activator, luciferase reporter", "quantity": "EC50", "result": "> 9960 nM"}
{"Compound": "CCn1cc(-c2cc(Cn3ccoc3=N)cc3c2CCN([C@@H](C)c2cc(OC)ccn2)C3=O)c(C(F)(F)F)n1", "target or system": "NOMO-1", "assay": "cell growth, inhibitor", "conditions": "120 h", "quantity": "EC50", "result": "156 nM"}
{"Compound": "C[C@H](CS)C(=O)N1CCC[C@H]1C(=O)O", "target or system": "THP-1", "assay": "pyroptotic LDH release", "conditions": "2 µM, 40 min, added: LPS then nigericin", "quantity": "inhibition", "result": "-19.9%"}
{"Compound": "CCOc1cc2cc(CO)c(CO)c(-c3ccnc(-n4nc(-c5cccnc5)c5ccccc5c4=O)c3)c2cc1OCC", "target or system": "HEK293T ATF4-FLuc reporter", "assay": "ATF4 reporter gene, activator, luciferase reporter", "quantity": "EC50", "result": "1500 nM"}
{"Compound": "CCn1cc(-c2cc(Cn3ccnc3)cc3c2CCN([C@H](c2cc(OC)ccn2)C2CC2)C3=O)c(C(F)(F)F)n1", "target or system": "COLO792", "assay": "cell growth", "conditions": "120 h", "quantity": "EC50", "result": "12900 nM"}
{"note": "Some of these lines once more:"}
{"Compound": "CCN(CCO)CCCC(C)Nc1ccnc2cc(Cl)ccc12 (stereo not shown)", "target or system": "human PBMC", "assay": "ISG expression, qRT-PCR, item: 5-ISG panel", "conditions": "1000 nM, added: ssRNA", "quantity": "inhibition", "result": "18 ± 4%"}
{"Compound": "O=C(O)c1cc(O)c2c(c1)C(=O)c1cccc(O)c1C2=O", "target or system": "HK-2 co-cultured with HepaRG", "assay": "MTT", "conditions": "133.33 µM, 48 h", "scale": "reference: untreated control", "quantity": "viability", "result": "43 ± 5.03%"}
